{"data": "Published values from different studies", "note": "A part holds a random share of what one study measured."}
{"data": "Block 1", "target": "Histone acetyltransferase KAT6A, winged helix 1, GST fusion (KAT6A, Homo sapiens, UniProt Q92794, residues 1-85)", "method": "protein binding microarray", "form": "double-stranded DNA, one strand shown", "sample": "in vitro", "concentration": "not given", "notes": "8-mer, flanks averaged, mean of 2 arrays, mostly near background", "baseline": "not given", "direction": "higher = stronger binding", "Residues (chain)": "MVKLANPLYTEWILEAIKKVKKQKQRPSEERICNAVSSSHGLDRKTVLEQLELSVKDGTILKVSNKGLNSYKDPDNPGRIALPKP"}
{"Sequence": "CTCGGTGC", "E-score": -0.0326}
{"Sequence": "CCTGGTTC", "E-score": -0.16}
{"Sequence": "GCACATGC", "E-score": 0.109}
{"Sequence": "CATGGTTC", "E-score": 0.0166}
{"Sequence": "TGAGAGAA", "E-score": -0.268}
{"Sequence": "ACACGGGG", "E-score": 0.31}
{"Sequence": "AGCTCGTC", "E-score": -0.157}
{"Sequence": "CGAGAGCA", "E-score": -0.0831}
{"Sequence": "AGTGTCGG", "E-score": 0.202}
{"Sequence": "ACAAACTA", "E-score": -0.0459}
{"Sequence": "AGGCGAAC", "E-score": 0.119}
{"Sequence": "CAGACAAA", "E-score": -0.238}
{"Sequence": "GGACGAGA", "E-score": -0.0669}
{"Sequence": "ATTCCATA", "E-score": -0.169}
{"Sequence": "GAGGCACA", "E-score": -0.263}
{"Sequence": "CTGTCCTC", "E-score": -0.131}
{"Sequence": "CCTGTTTA", "E-score": 0.051}
{"Sequence": "GGAATCCA", "E-score": -0.0911}
{"Sequence": "AAAAGTAT", "E-score": 0.014}
{"Sequence": "GGAAGCAC", "E-score": -0.00796}
{"Sequence": "CCTGCACG", "E-score": -0.0886}
{"Sequence": "CTCCTCGC", "E-score": 0.0306}
{"Sequence": "AGCCTCCA", "E-score": -0.0816}
{"Sequence": "ACCAAGCT", "E-score": -0.212}
{"Sequence": "CTGCTAAG", "E-score": -0.184}
{"data": "Block 2", "target": "RNA binding protein fox-1 homolog 2, RRM domain, GST-SBP tag (RBFOX2, Homo sapiens, UniProt O43251-10, residues 100-194)", "method": "RNA Bind-n-Seq", "form": "RNA", "sample": "in vitro", "concentration": "365 nM", "notes": "natural RNA segment, single round, ends assumed", "baseline": "no-protein control", "direction": "higher = stronger binding", "shared flanks, not repeated": "GGGAGUUCUACAGUCCGACGAUC … UGGAAUUCUCGGGUGCCAA", "Target sequence (chain)": "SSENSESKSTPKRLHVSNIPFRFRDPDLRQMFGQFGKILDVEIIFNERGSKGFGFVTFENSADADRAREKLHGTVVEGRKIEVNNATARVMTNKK"}
{"Sequence": "CUUGAGGUGGCCUCCUUGCUUGUUACAUACCUGGGUAUGUGUAGGCAGUUUAGUGCAUCUUUGCCUCUCGGUUGAAACCUGUAUAACCCUGUUACAAAGCUGUGUUGUUG", "RBNS enrichment (R)": 0.709}
{"Sequence": "GGAUAGGAGUCUAGAUAUUUACCUGAUACUAAUCAGGAAAUAUAUGAUAUCCGUAUUUAAAAUGUAGUUAGUUAUAUUUAAUGACCUCAUUCCUAAGUUCCUUUUUCGUU", "RBNS enrichment (R)": 0.311}
{"Sequence": "CCUAAUCUGAUCUAAGAAGCUGCUGUAGAGUCAGAAGUAGCUUCUGUGUGAAACUUAUAUUUGUAUGUAGCUUUCUAGGAAAAUUUUACAGACACUUAAAGUAUUUAUGC", "RBNS enrichment (R)": 0.943}
{"Sequence": "GUAUGCUAAGGGGAAAAAAAAAUUUAGGAUAGAAAACUUGAGCAUUGUAUAUGUUUCCUGGAUGUCCUUGACGGGUACAAACACUGAUGUGGUGGUAGCCAUCCCACAUG", "RBNS enrichment (R)": 1.07}
{"Sequence": "CUGUAGAAUUGUGGGCUGUAGCGUUACUCUGAUUUUCUGUCUAGUAUCAGAGAAUGCUGGUAGCUUAAAAUUUUUAUUUUAGGACUUGUACUCUGAAUUUUCAGGAACCG", "RBNS enrichment (R)": 0.746}
{"Sequence": "AGAAAAACAAAUACUUUCUUGAUCAAUAUGUAAAGCCAGGAAGUUGGUAAGAGUGACUGAGUAGCCUGACUAUAAUACACAGUUAUAGUGAUAAUCACAGGAAAAGAUGC", "RBNS enrichment (R)": 1.74}
{"Sequence": "CCUCUUUCCUGGGGACAAAAGGCUCUCCUAGACAUGAGUGAGCAGGUAAUCGCCCAACUUGGCUUUGGGGAAAGUCAGAGUCUGACAGAGCUGAGCAUUGUCUCAUCCAG", "RBNS enrichment (R)": 0.367}
{"Sequence": "GCAUCAAGCCCAUAGGAUGACUGCGCAAUCCUGUUCAGUAUUGUGAAGUAGCCCUUAAUCCUAACUUUUAAGCAAAAUCCCUUGGCCGCACUUUUAAGGUUUGGUUGUUU", "RBNS enrichment (R)": 1.05}
{"data": "Block 3", "target": "Interferon regulatory factor 5, full length, phosphomimetic (IRF5, Homo sapiens, UniProt Q13568-2, residues 1-514, K96S/S451D/S453D/S456D/S462D)", "method": "protein-binding microarray", "form": "double-stranded DNA, one strand shown", "sample": "in vitro", "concentration": "250 nM", "notes": "60-bp whole probe", "together with": "salmon DNA 0.4 mg/ml", "baseline": "random background probes", "direction": "higher = stronger binding", "shared flanks, not repeated": "GCCTAGCAC … GTCTTGATTCGCTTGACGCTGCTG"}
{"Sequence": "GACTATTTCGGGTATCGAGACGTGCTA", "log fluorescence": "4.81 z-score"}
{"Sequence": "GAGGGTTTCGACTATCGGGACGTGCTA", "log fluorescence": "5.75 z-score"}
{"Sequence": "TCAAATTTCCCTCTCCCACTGTGCTAG", "log fluorescence": "0.716 z-score"}
{"Sequence": "TTAGATTTCAGTTCGGATTAGTGCTAG", "log fluorescence": "1.71 z-score"}
{"Sequence": "GACGATATCGACTTTCGGGACGTGCTA", "log fluorescence": "6.91 z-score"}
{"Sequence": "GCCATTGTGGGTCTTGCAGAGTGCTAG", "log fluorescence": "-0.66 z-score"}
{"Sequence": "TCATATATATCATTTAAACTGTGCTAG", "log fluorescence": "1.25 z-score"}
{"Sequence": "TTAGGCCTGCTACTGCTTTAGTGCTAG", "log fluorescence": "-0.506 z-score"}
{"Sequence": "TTACGACTGGACTTTCGGTTAGTGCTA", "log fluorescence": "9.91 z-score"}
{"Sequence": "TTAGGTCTCCTTATCCTGTAGTGCTAG", "log fluorescence": "-0.285 z-score"}
{"Sequence": "AACGATCTCAGTTTCGAGACGTGCTAG", "log fluorescence": "5.03 z-score"}
{"Sequence": "TTAGGTATCGGTAACGGTTAGTGCTAG", "log fluorescence": "6.22 z-score"}
{"Sequence": "TTAGAATTGGGGTATCGATTAGTGCTA", "log fluorescence": "2.65 z-score"}
{"Sequence": "GCCGGTTTCGGGACTGGGGACGTGCTA", "log fluorescence": "5.42 z-score"}
{"Sequence": "GACAATCTCAGTCTCGAGACGTGCTAG", "log fluorescence": "0.398 z-score"}
{"Sequence": "TTAGGTCTCGTTTTCGGTTAGTGCTAG", "log fluorescence": "7.33 z-score"}
{"Sequence": "TCAGTTTCTGGTTTATTACTGTGCTAG", "log fluorescence": "4.8 z-score"}
{"Sequence": "TTTGATTTCAGTTTCGATTAGTGCTAG", "log fluorescence": "10.4 z-score"}
{"Sequence": "TTCGGACTGCTTTTCCTTTAGTGCTAG", "log fluorescence": "0.533 z-score"}
{"data": "Block 4", "target": "RING finger protein unkempt homolog, zinc fingers 1-6, GST-SBP tag (UNK, Homo sapiens, UniProt Q9C0B0, residues 30-357)", "method": "RNA Bind-n-Seq", "form": "RNA", "sample": "in vitro", "concentration": "not given", "notes": "RNA with constant flanks, human and mouse sites, ends assumed", "baseline": "input RNA pool", "direction": "higher = stronger binding", "shared flanks, not repeated": "GGGAGUUCUACAGUCCGACGAUC … CAACAGAGGAUUGAGCAUCA", "chain of UniProt Q9C0B0 (30-357, looked up)": "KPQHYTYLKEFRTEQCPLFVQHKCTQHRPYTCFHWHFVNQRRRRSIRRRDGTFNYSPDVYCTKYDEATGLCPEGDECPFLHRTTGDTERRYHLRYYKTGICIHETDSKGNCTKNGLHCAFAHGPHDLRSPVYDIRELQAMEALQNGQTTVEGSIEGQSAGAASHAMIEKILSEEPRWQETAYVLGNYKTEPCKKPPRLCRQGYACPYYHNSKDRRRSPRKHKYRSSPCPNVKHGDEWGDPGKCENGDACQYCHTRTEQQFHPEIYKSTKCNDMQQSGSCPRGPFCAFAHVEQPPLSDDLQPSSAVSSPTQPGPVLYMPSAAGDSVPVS"}
{"Sequence": "ACCAUAAUUCCUCUUAAGCAUAUGACUAAUUUAUUUCUUAUUCAUUUCCAUUUCAGCAUUUAGUUCUUUAUUUUUAUUAUGGGGCUAGUUCAGAACUGGAGUGGCUGUAUAGCAGUGUAG", "bound/input enrichment [ratio]": 7.59}
{"Sequence": "CUUAUGACCCUCGUGGGUCAUGAUAACUGGGUACGUGGAGUUCUGUUCCAUUCUGGGGGGAAGUUUAUUUUGAGUUGUGCUGAUGACAAGACCCUACGCGUAUGGGAUUACAAGAACAAG", "bound/input enrichment [ratio]": 0.351}
{"Sequence": "CCCACUAAACCAUCUCUCAGGCUCCUGAGAGGUUUUUUGUUUGUUUGUUUUUGUUUUUUAAAUAGGUCUCAGCUGGCCUGGAGCUUGCAGUGUAGAUCAGGCUGGCCUAGAGCUUACUGA", "bound/input enrichment [ratio]": 0.274}
{"Sequence": "UAUCAUGCCUUUUCUCUAGUUUCUCUUUCAGGAUGGAAAGAAUAUUUUAAAAACAACAUUUUAGGACUUAAACAUUUGAUUUCGGUACCAGAUGAAUUGCUAACCUGUUACUGAUAAUUU", "bound/input enrichment [ratio]": 7.47}
{"Sequence": "UACCUCCUCAGCGAUGGGACCUGCAAGUGCGGUCUGGAGUGUCCACUUAAUGUCCCCAAGGUUUUCAACUUUGACCCUUUGGCCCCGGUGACCCCGGGUGGGGCUGGGGUGGGGCCAGCA", "bound/input enrichment [ratio]": 0.129}
{"note": "Excerpt of the above (block 1):"}
{"Sequence": "CCTGCACG", "E-score": -0.0886}
{"Sequence": "GGAATCCA", "E-score": -0.0911}
{"Sequence": "CATGGTTC", "E-score": 0.0166}
{"Sequence": "GGAAGCAC", "E-score": -0.00796}
{"Sequence": "GAGGCACA", "E-score": -0.263}
{"Sequence": "CTGTCCTC", "E-score": -0.131}
